Measurements pooled from the literature.
Numbers after ± are the reported error.

SMILES | target or system | assay | test system | setting | measurement | result
CCCC[C@H](NC(=O)COCCOCCNC(=O)CN1CCN(CC(=O)O)CCN(CC(=O)O)CC1)C(=O)N[C@H]1CC(=O)NCCCC[C@@H](C(N)=O)NC(=O)[C@H](Cc2c[nH]c3ccccc23)NC(=O)[C@H](CCCNC(=N)N)NC(=O)[C@@H](Cc2ccccc2)NC(=O)[C@H](Cc2c[nH]cn2)NC1=O [copper-64 labelled] | – | – | C57 mice, lung | intravenous, 0.37 MBq, 2 h | tissue uptake | 0.7 ± 0.04 %ID/g
[64Cu+2].c1cnc(CNCc2ccc(CN3CCCN4CCNCCCN(CC4)CC3)cc2)nc1 | CXCR4 | – | NOD/SCID mouse, U87 and U87-stb-CXCR4 xenografts, spleen | iv, 30 min, ex vivo | tissue uptake | 15.1 ± 0.92 %ID/g
CCCC[C@H](NC(=O)CNC(=O)CNC(=O)CN1CCN(CC(=O)O)CCN(CC(=O)O)CCN(CC(=O)O)CC1)C(=O)N[C@H]1CC(=O)NCCCC[C@@H](C(N)=O)NC(=O)[C@H](Cc2c[nH]c3ccccc23)NC(=O)[C@H](CCCNC(=N)N)NC(=O)[C@@H](Cc2ccccc2)NC(=O)[C@H](Cc2c[nH]cn2)NC1=O [lutetium-177 labelled] | – | – | C57 mouse, female, muscle | intravenous, 0.037 MBq, 4 h | tissue uptake | 0.05 ± 0.02 %ID/g
CCCC[C@H](NC(=O)CNC(=O)CNC(=O)CN1CCN(CC(=O)O)CCN(CC(=O)O)CC1)C(=O)N[C@H]1CC(=O)NCCCC[C@@H](C(N)=O)NC(=O)[C@H](Cc2c[nH]c3ccccc23)NC(=O)[C@H](CCCNC(=N)N)NC(=O)[C@@H](Cc2ccccc2)NC(=O)[C@H](Cc2c[nH]cn2)NC1=O [technetium-99m labelled] | – | – | C57 mouse, brain | iv, 0.037 MBq, 4 h | tissue uptake | 0.01 ± 0.01 %ID/g
CCCC[C@H](NC(=O)CCCCCCCNC(=O)CN1CCN(CC(=O)O)CCN(CC(=O)O)CC1)C(=O)N[C@H]1CC(=O)NCCCC[C@@H](C(N)=O)NC(=O)[C@H](Cc2c[nH]c3ccccc23)NC(=O)[C@H](CCCNC(=N)N)NC(=O)[C@@H](Cc2ccccc2)NC(=O)[C@H](Cc2c[nH]cn2)NC1=O [copper-64 labelled] | – | – | C57 mice, spleen | intravenous, 0.37 MBq, 2 h | tissue uptake | 0.17 ± 0.12 %ID/g
CC(C)C[C@H](NC(=O)[C@@H](CCCCNC(=O)CCCCCNC(=O)CN1CCN(CC(=O)O)CCN(CC(=O)O)CCN(CC(=O)O)CC1)NC(=O)[C@H](Cc1ccc(O)cc1)NC(=O)[C@H](CO)NC(=O)[C@H](Cc1c[nH]c2ccccc12)NC(=O)[C@H](Cc1cnc[nH]1)NC(=O)[C@@H]1CCC(=O)N1)C(=O)N[C@@H](CCCNC(=N)N)C(=O)N1CCC[C@H]1C(=O)NCC(N)=O [indium-111 labelled] | – | – | female athymic nude mouse, liver | intravenous, 0.037 MBq, 24 h | tissue uptake | 0.59 ± 0.16 %ID/g
Cc1cc(-c2ccc(NC(=O)[C@H](CCCCNC(=O)CCOCCOCCC(=O)N[C@H](Cc3ccccc3)C(=O)N[C@H]3CSSC[C@@H](C(=O)N[C@H](C(=O)O)[C@@H](C)O)NC(=O)[C@H]([C@@H](C)O)NC(=O)[C@H](CCCCN)NC(=O)[C@@H](Cc4c[nH]c5ccccc45)NC(=O)[C@H](Cc4ccc(O)cc4)NC3=O)NC(=O)CN3CCN(CC(=O)O)CCN(CC(=O)O)CCN(CC(=O)O)CC3)c(C)c2)ccc1N=Nc1ccc2c(S(=O)(=O)O)cc(S(=O)(=O)O)c(N)c2c1O [lutetium-177 labelled] | – | – | human metastatic neuroendocrine tumour | dose not given | grade 1 vomiting incidence | 8%
CC(C)C[C@H](NC(=O)[C@H](Cc1ccc(O)cc1)NC(=O)[C@@H](CCCNC(=N)N)NC(=O)[C@@H](CO)NC(=O)[C@H](Cc1ccccc1)NC(=O)[C@H](CC1CCCCC1)NC(=O)[C@H](CC(=O)O)NC(=O)CN1CCCN2CCN(CCCN(CC(=O)O)CC2)CC1)C(=O)N[C@@H](Cc1c[nH]c2ccccc12)C(=O)N[C@@H](CO)C(=O)O [copper-64 labelled] | – | – | female NMRI nude mice, liver | 22 h p.i. | tissue uptake | 3.6 ± 0.4 %ID/g
N=C(N)NCCC[C@@H]1NC(=O)[C@H](CCCCNC(=O)CNC(=O)CNC(=O)CNC(=O)CC[C@H](NC(=O)CNC(=O)CNC(=O)CNC(=O)CC[C@H](NC(=O)CN2CCN(CC(=O)O)CCN(CC(=O)O)CCN(CC(=O)O)CC2)C(=O)NCC(=O)NCC(=O)NCC(=O)N[C@@H](CCC(=O)NCC(=O)NCC(=O)NCC(=O)NCCCC[C@@H]2NC(=O)[C@@H](Cc3ccccc3)NC(=O)[C@H](CC(=O)O)NC(=O)CNC(=O)[C@H](CCCNC(=N)N)NC2=O)C(=O)NCC(=O)NCC(=O)NCC(=O)NCCCC[C@@H]2NC(=O)[C@@H](Cc3ccccc3)NC(=O)[C@H](CC(=O)O)NC(=O)CNC(=O)[C@H](CCCNC(=N)N)NC2=O)C(=O)NCC(=O)NCC(=O)NCC(=O)NCCCC[C@@H]2NC(=O)[C@@H](Cc3ccccc3)NC(=O)[C@H](CC(=O)O)NC(=O)CNC(=O)[C@H](CCCNC(=N)N)NC2=O)NC(=O)[C@@H](Cc2ccccc2)NC(=O)[C@H](CC(=O)O)NC(=O)CNC1=O [indium-111 labelled] | – | – | female athymic nu/nu mice, spleen | intravenous, 111 kBq, 24 h | tissue uptake | 1.96 ± 0.31 %ID/g
COC(=O)c1cnc(-c2cnccn2)cc1C(=O)OC.COC(=O)c1cnc(-c2cnccn2)cc1C(=O)OC.[Cl-].[Cl-].[Cl-].[Cl-].[Cu+2].[Cu+2] | calf thymus DNA | ethidium bromide displacement | – | – | quenching rate constant | 1.67e+11 M⁻¹ s⁻¹
[64Cu+2].c1ccc(CNCc2ccc(CN3CCCN4CCNCCCN(CC4)CC3)cc2)nc1 | CXCR4 | – | NOD/SCID mouse, U87 and U87-stb-CXCR4 xenografts, stomach | iv, 480 min, ex vivo | tissue uptake | 1.91 ± 0.23 %ID/g
N=C(N)NCCC[C@@H]1NC(=O)[C@H](CCCCNC(=O)CC[C@H](NC(=O)CC[C@H](NC(=O)CN2CCN(CC(=O)O)CCN(CC(=O)O)CCN(CC(=O)O)CC2)C(=O)N[C@@H](CCC(=O)NCCCC[C@@H]2NC(=O)[C@@H](Cc3ccccc3)NC(=O)[C@H](CC(=O)O)NC(=O)CNC(=O)[C@H](CCCNC(=N)N)NC2=O)C(=O)NCCCC[C@@H]2NC(=O)[C@@H](Cc3ccccc3)NC(=O)[C@H](CC(=O)O)NC(=O)CNC(=O)[C@H](CCCNC(=N)N)NC2=O)C(=O)NCCCC[C@@H]2NC(=O)[C@@H](Cc3ccccc3)NC(=O)[C@H](CC(=O)O)NC(=O)CNC(=O)[C@H](CCCNC(=N)N)NC2=O)NC(=O)[C@@H](Cc2ccccc2)NC(=O)[C@H](CC(=O)O)NC(=O)CNC1=O [indium-111 labelled] | – | – | female athymic nu/nu mice, U87MG tumour | intravenous, 111 kBq, 4 h | tissue uptake | 7.32 ± 2.66 %ID/g

Repeated from above:
SMILES | target or system | assay | test system | setting | measurement | result
[64Cu+2].c1ccc(CNCc2ccc(CN3CCCN4CCNCCCN(CC4)CC3)cc2)nc1 | CXCR4 | – | NOD/SCID mouse, U87 and U87-stb-CXCR4 xenografts, stomach | iv, 480 min, ex vivo | tissue uptake | 1.91 ± 0.23 %ID/g
N=C(N)NCCC[C@@H]1NC(=O)[C@H](CCCCNC(=O)CC[C@H](NC(=O)CC[C@H](NC(=O)CN2CCN(CC(=O)O)CCN(CC(=O)O)CCN(CC(=O)O)CC2)C(=O)N[C@@H](CCC(=O)NCCCC[C@@H]2NC(=O)[C@@H](Cc3ccccc3)NC(=O)[C@H](CC(=O)O)NC(=O)CNC(=O)[C@H](CCCNC(=N)N)NC2=O)C(=O)NCCCC[C@@H]2NC(=O)[C@@H](Cc3ccccc3)NC(=O)[C@H](CC(=O)O)NC(=O)CNC(=O)[C@H](CCCNC(=N)N)NC2=O)C(=O)NCCCC[C@@H]2NC(=O)[C@@H](Cc3ccccc3)NC(=O)[C@H](CC(=O)O)NC(=O)CNC(=O)[C@H](CCCNC(=N)N)NC2=O)NC(=O)[C@@H](Cc2ccccc2)NC(=O)[C@H](CC(=O)O)NC(=O)CNC1=O [indium-111 labelled] | – | – | female athymic nu/nu mice, U87MG tumour | intravenous, 111 kBq, 4 h | tissue uptake | 7.32 ± 2.66 %ID/g
